Measurements pooled from the literature.
Values joined by “and” are separate records of one study, mostly repeats; a detail may differ. ± marks the error that the study gave.
UniProt Q16678, sequence (whole entry, looked up): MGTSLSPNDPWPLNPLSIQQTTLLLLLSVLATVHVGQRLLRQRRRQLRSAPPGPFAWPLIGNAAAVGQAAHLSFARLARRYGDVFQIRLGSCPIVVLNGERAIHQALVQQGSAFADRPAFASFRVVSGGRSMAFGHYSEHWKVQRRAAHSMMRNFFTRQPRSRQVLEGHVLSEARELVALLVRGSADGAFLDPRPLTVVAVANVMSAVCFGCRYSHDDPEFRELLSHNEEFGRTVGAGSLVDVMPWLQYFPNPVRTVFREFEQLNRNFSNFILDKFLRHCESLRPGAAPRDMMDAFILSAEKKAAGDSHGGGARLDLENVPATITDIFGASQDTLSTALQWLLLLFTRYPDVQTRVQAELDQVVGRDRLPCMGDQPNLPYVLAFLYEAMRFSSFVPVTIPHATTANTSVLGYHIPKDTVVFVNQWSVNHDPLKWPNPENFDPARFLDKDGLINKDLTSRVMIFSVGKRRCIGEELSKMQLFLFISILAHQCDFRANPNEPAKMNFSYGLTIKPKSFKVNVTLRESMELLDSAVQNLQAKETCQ
UniProt Q38087, sequence (whole entry, unmodified, looked up): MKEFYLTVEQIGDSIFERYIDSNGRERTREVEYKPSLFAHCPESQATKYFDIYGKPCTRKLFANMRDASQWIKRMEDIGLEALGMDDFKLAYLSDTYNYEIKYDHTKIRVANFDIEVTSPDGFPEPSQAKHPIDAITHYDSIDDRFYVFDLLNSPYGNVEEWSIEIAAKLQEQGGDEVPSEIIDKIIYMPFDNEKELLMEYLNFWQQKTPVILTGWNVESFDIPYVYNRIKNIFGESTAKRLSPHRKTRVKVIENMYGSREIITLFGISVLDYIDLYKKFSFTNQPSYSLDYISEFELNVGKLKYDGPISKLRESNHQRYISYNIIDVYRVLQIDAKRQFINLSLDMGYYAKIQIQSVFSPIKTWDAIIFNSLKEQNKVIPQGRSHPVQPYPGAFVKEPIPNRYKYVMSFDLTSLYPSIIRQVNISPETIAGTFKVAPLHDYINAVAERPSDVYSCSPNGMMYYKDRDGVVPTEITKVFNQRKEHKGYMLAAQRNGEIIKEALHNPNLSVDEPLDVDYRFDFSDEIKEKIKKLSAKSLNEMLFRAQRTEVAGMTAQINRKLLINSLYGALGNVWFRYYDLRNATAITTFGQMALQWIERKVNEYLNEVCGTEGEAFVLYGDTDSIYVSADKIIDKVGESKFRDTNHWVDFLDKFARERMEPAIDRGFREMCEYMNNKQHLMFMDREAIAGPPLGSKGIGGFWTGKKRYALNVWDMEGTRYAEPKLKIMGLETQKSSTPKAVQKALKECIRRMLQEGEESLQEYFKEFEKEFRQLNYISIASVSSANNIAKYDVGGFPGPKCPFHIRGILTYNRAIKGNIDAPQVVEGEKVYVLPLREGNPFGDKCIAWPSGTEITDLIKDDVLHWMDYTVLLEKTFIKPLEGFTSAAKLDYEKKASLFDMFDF
UniProt P02754, sequence (whole entry, looked up): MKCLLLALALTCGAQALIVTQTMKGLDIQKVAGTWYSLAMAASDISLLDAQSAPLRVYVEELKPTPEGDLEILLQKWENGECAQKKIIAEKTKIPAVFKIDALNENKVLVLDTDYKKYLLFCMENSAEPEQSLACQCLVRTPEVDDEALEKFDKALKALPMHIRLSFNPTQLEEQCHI
UniProt E9QYP0, sequence (whole entry, looked up): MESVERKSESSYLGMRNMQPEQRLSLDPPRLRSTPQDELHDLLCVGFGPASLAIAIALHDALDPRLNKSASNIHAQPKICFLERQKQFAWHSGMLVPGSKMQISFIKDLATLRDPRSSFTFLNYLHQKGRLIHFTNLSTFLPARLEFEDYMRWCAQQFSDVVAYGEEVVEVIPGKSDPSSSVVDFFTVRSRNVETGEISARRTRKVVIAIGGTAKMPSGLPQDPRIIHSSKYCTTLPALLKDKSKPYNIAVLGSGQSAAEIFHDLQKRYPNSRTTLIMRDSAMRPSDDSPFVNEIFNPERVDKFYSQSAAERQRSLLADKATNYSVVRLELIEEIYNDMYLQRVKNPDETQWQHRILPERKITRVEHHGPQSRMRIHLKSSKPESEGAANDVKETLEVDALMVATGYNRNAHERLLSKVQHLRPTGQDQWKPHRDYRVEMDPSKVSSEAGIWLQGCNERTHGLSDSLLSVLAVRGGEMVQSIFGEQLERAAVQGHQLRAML
UniProt P00183, sequence (whole entry, unmodified, looked up): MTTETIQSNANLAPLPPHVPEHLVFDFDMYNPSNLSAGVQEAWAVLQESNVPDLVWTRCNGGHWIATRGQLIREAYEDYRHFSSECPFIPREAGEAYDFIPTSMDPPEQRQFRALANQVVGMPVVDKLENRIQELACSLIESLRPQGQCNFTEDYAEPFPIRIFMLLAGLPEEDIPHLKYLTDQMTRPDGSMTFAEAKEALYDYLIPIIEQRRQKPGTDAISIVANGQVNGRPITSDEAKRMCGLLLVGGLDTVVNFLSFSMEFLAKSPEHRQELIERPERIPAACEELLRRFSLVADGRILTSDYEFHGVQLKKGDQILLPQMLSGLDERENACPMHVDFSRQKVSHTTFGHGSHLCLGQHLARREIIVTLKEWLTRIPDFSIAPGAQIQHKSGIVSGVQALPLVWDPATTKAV
UniProt P48546, sequence (whole entry, looked up): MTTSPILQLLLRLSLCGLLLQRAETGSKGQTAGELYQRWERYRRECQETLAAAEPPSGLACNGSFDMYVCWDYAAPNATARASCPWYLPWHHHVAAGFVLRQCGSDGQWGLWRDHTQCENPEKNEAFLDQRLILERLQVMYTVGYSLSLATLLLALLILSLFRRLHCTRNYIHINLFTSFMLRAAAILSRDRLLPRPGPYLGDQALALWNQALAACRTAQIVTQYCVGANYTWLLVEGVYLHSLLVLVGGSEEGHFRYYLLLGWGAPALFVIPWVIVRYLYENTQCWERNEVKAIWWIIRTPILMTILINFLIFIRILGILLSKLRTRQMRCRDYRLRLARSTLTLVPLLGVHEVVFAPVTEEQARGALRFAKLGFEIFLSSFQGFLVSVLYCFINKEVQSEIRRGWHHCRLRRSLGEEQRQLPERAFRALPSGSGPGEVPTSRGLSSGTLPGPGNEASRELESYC
UniProt P21879, sequence (whole entry, looked up): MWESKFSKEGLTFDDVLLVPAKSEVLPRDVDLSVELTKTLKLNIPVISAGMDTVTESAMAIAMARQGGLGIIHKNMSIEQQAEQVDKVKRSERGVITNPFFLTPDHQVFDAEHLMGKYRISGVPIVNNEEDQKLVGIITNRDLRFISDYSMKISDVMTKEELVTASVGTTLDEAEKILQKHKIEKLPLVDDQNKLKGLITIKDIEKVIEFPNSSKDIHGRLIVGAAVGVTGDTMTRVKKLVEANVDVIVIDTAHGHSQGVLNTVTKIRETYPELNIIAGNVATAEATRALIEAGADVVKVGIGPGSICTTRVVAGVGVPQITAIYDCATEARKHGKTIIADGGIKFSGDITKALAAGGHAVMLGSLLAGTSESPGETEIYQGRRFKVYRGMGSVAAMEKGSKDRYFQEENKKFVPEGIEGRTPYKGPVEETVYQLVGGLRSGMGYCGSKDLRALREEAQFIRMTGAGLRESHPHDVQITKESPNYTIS

`CC(=O)N[C@@H](C)C(=O)N[C@H]1CSSC[C@@H](C(=O)NCC(=O)N[C@@H](CO)C(=O)NCC(=O)N[C@@H](CO)C(=O)N[C@@H](CC(=O)O)C(=O)N[C@@H](Cc2ccc(O)cc2)C(=O)N[C@@H](CCCCN)C(=O)N[C@@H](CC(=O)O)C(=O)N[C@@H](CC(=O)O)C(=O)N[C@@H](CC(=O)O)C(=O)N[C@@H](CC(=O)O)C(=O)N[C@@H](CCCCN)C(N)=O)NC(=O)[C@H](Cc2ccccc2)NC(=O)[C@@H]2CCCN2C(=O)[C@H](Cc2c[nH]c3ccccc23)NC(=O)[C@H](CC(C)C)NC(=O)[C@H](CC(C)C)NC(=O)[C@H](CCC(=O)O)NC(=O)[C@H](Cc2ccccc2)NC(=O)[C@H](Cc2c[nH]cn2)NC(=O)[C@H](CCCNC(=N)N)NC(=O)[C@H](Cc2ccccc2)NC1=O` has a Kd of 31 nM (Gastric inhibitory polypeptide receptor, extracellular domain (GIPR, Homo sapiens, UniProt P48546); binding, biolayer interferometry).
With `[Mn+2]` the Kd was 330 nM (methionine aminopeptidase (Acinetobacter baumannii, UniProt V5VCW7); metal binding, activator, activity titration; ATCC 17978; divalent metal ion Kd, with: Met-AMC substrate).
With `Nc1nc2c(ncn2[C@H]2C[C@H](O)[C@@H](COP(=O)(O)OP(=O)(O)OP(=O)(O)O)O2)c(=O)[nH]1` the Kd was 140000 ± 18000 nM (DNA-directed DNA polymerase (43, Escherichia phage RB69, UniProt Q38087, D222A/D327A); pre-steady-state kinetics; dNTP incorporation opposite tC°).
`Nc1ncnc2c1ncn2[C@@H]1O[C@H](COP(=O)(O)OP(=O)(O)OP(=O)(O)OP(=O)(O)OP(=O)(O)OP(=O)(O)OC[C@H]2O[C@@H](n3cnc4c(N)ncnc43)[C@H](O)[C@@H]2O)[C@@H](O)[C@H]1O` gave a Kd of 800 ± 200 nM (guaB (Bacillus subtilis, UniProt P21879)).
For `CC(=O)N[C@@H](CC(C)C)C(=O)N[C@@H](CCCCN)C(=O)N[C@@H](CCCCN)C(=O)N[C@@H](CC(C)C)C(=O)N[C@@H](CC(C)C)C(=O)N[C@@H](CCCCN)C(=O)N[C@@H](Cc1c[nH]c2ccccc12)C(=O)N[C@@H](CC(C)C)C(=O)N[C@@H](CCCCN)C(=O)N[C@@H](CCCCN)C(=O)N[C@@H](CC(C)C)C(=O)N[C@@H](CC(C)C)C(=O)N[C@@H](CCCCN)C(=O)N[C@@H](CC(C)C)C(=O)N[C@@H](C)C(=O)NCC(N)=O`, the Kd was 0.87 ± 0.05 nM (HCV IRES domain IV hairpin; competitive fluorescence anisotropy; pH 7.4, 20 °C, with: rhodamine-Rev peptide).
The Kd of `CC1=C[C@H](O)CC(C)(C)[C@H]1/C=C/C(C)=C/C=C/C(C)=C/C=C/C=C(C)/C=C/C=C(C)/C=C/C1=C(C)C[C@@H](O)CC1(C)C` is reported as 1730 ± 20 nM (Beta-lactoglobulin (LGB, Bos taurus, UniProt P02754); binding).
With `O=C1C2CC3CC(C2)CC1C3` the Kd was 2700 ± 1600 nM (camC (Pseudomonas putida, UniProt P00183, C335A); site I binding, temperature-jump relaxation, fast phase).
`CC1=C(/C=C/C(C)=C/C=C/C(C)=C/CO)C(C)(C)CCC1` gave a Kd of 480 ± 50 nM (Xenopus IRBP W450F; binding, retinol fluorescence enhancement).
`Nc1ncnc2c1ncn2[C@@H]1O[C@H](COP(=O)(O)OP(=O)(O)O)[C@@H](O)[C@H]1O` gave a Kd of 11000 ± 1000 nM (L-ornithine N(5)-monooxygenase (Neosartorya fumigata, UniProt E9QYP0); fluorescence polarization displacement; pH 7.0, with: 30 nM fluorescent probe).
With `C#Cc1ccc2ccc3cccc4ccc1c2c34` the Kd was < 2500 nM and 1900 nM (Cytochrome P450 1B1 (CYP1B1, Homo sapiens, UniProt Q16678); binding, fluorescence; pH 7.4).
For `CN[C@@](C)(C[18F])C(=O)O`, the tissue uptake was 0.4 ± 0.03 %ID/g (SCID mouse MDA-MB-468 xenograft, brain; 15 min, post injection).
For `COc1cc2c(cc1OC)C13CCN4CC5=CCOC(CC(=O)O)C(C5CC41)C3N2` (centres unmarked), the Kd was 16.3 nM (Soluble acetylcholine receptor (Aplysia californica, UniProt Q8WSF8); binding, scintillation proximity; with: 20 nM [3H]epibatidine).
The Kd of `O=P(O)(O)OP(=O)(O)OP(=O)(O)OC[C@H]1O[C@@H](n2cnc3c(NCCc4ccccc4)ncnc32)[C@H](O)[C@@H]1O` is reported as 300 ± 30 nM (CFTR NBD1; binding, thermal shift).
`CC(C)=CCC[C@@H](C)[C@H]1CC[C@@]2(C)C3=C(CC[C@]12C)[C@@]1(C)CC[C@H](O)C[C@@H]1CC3` has a Kd of 12000 ± 2000 nM (Sterol 14-alpha demethylase (Acanthamoeba castellanii, UniProt L8GJB3); sterol binding, spectral titration; 40% w/v HPCD).

Some of these lines once more:
For `CC(=O)N[C@@H](CC(C)C)C(=O)N[C@@H](CCCCN)C(=O)N[C@@H](CCCCN)C(=O)N[C@@H](CC(C)C)C(=O)N[C@@H](CC(C)C)C(=O)N[C@@H](CCCCN)C(=O)N[C@@H](Cc1c[nH]c2ccccc12)C(=O)N[C@@H](CC(C)C)C(=O)N[C@@H](CCCCN)C(=O)N[C@@H](CCCCN)C(=O)N[C@@H](CC(C)C)C(=O)N[C@@H](CC(C)C)C(=O)N[C@@H](CCCCN)C(=O)N[C@@H](CC(C)C)C(=O)N[C@@H](C)C(=O)NCC(N)=O`, the Kd was 0.87 ± 0.05 nM (HCV IRES domain IV hairpin; competitive fluorescence anisotropy; pH 7.4, 20 °C, with: rhodamine-Rev peptide).
The Kd of `CC1=C[C@H](O)CC(C)(C)[C@H]1/C=C/C(C)=C/C=C/C(C)=C/C=C/C=C(C)/C=C/C=C(C)/C=C/C1=C(C)C[C@@H](O)CC1(C)C` is reported as 1730 ± 20 nM (Beta-lactoglobulin (LGB, Bos taurus, UniProt P02754); binding).
